# Assay results collected from several papers.
# Parts stem from different laboratories: compare values within a part only. Positions count from the first letter of the parent shown.

# Study 1
# Target: Sal-like protein 4, full length isoform A (SALL4, Homo sapiens, UniProt Q9UJQ4, residues 1-1053)
# UniProt Q9UJQ4, sequence (whole entry, looked up): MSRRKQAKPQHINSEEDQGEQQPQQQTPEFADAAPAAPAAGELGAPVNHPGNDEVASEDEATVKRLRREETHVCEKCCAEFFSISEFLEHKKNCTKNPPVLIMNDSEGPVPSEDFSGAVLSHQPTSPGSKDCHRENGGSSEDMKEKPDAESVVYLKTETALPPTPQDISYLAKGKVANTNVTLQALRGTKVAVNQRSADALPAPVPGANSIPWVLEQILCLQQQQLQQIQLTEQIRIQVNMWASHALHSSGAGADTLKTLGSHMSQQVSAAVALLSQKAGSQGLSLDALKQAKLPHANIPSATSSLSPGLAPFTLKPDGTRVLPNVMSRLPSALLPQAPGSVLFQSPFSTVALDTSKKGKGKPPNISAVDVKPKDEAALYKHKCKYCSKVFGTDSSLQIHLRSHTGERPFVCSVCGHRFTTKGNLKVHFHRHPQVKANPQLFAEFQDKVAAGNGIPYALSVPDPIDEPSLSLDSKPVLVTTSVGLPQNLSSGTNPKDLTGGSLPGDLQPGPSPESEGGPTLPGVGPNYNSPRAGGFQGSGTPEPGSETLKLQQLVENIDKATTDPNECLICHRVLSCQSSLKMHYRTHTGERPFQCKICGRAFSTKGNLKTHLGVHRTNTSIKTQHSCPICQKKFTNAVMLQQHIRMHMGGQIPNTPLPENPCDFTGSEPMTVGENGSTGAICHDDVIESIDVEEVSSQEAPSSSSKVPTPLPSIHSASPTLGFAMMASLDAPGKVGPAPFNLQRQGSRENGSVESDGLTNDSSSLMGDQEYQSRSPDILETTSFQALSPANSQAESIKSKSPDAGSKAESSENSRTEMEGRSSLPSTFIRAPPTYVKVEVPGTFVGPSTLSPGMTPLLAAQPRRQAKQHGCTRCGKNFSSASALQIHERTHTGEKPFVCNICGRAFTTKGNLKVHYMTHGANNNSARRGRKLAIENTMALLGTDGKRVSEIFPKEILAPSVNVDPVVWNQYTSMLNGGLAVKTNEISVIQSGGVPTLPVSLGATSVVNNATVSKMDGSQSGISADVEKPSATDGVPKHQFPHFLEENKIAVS
# Technique: universal PBM
# Molecule type: double-stranded DNA, one strand shown
# Sample: in vitro
# Concentration: 600 nM
# Setting: 8-mer, flanks averaged, mean of replicates
# Reading: higher = stronger binding
Strand,E-score
AGGTCAAC,-0.0803
AGCCGAGA,-0.246
GTGCATCA,0.0337
CGTTGCCC,-0.346
CATTGTCG,0.0173
CGGAATAA,0.0948
GCTCCAAA,-0.113
CTGCTATC,-0.0352
TATAGTGA,0.322
ACAAGATC,0.043
AAGCTATA,0.23
AACTTTCG,0.123
ACCGCCCT,-0.2
GAGGTTCC,-0.164
ACGACGTA,0.133
GAGAGGCA,-0.314
AGAAGCTC,-0.0958
ACGGGCCC,-0.437
GCAAAGTA,0.16
ACCAATAG,0.0754
TCCTGCCA,-0.156
ATGGATTC,0.0539
CGAGTTAC,-0.0784
AGAAGGAA,0.0539
GGCATACC,-0.219

# Study 2
# Target: Interferon regulatory factor 3, full length, phosphomimetic (IRF3, Homo sapiens, UniProt Q14653, residues 1-427, S386D/S396D/S398D/S402D/T404D/S405D)
# Technique: protein-binding microarray
# Molecule type: double-stranded DNA, one strand shown
# Sample: in vitro
# Concentration: 2540 nM top
# Setting: 60-bp whole probe
# Together with: salmon DNA 0.4 mg/ml
# Relative to: random background probes
# Reading: higher = stronger binding
# Shared flanks, not repeated: GCCTAGCAC … GTCTTGATTCGCTTGACGCTGCTG
# Residues (chain): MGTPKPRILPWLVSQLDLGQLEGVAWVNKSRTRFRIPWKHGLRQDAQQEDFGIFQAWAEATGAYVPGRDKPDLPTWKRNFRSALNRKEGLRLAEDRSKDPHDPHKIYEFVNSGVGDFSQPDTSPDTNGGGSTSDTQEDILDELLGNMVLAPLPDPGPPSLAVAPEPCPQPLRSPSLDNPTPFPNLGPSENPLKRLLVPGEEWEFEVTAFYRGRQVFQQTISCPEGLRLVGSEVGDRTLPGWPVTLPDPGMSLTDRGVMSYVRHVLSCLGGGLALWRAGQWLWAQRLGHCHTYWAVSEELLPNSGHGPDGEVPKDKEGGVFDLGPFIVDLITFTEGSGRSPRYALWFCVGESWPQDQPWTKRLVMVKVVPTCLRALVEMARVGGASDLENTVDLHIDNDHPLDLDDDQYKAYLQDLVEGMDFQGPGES
Strand,fitted relative affinity [z-score]
GCAGGAGAGACAGAAGTTATGTGCTAG,-0.816
ACAGGACAGTCCCATCTACCGTGCTAG,0.832
TTAGATTTCAATCTCGATTAGTGCTAG,2.02
GACGGTCCCGGTATCGGGACGTGCTAG,0.818
GACGATCTCAGTCTCCAGACGTGCTAG,1.07
TTAGTTATCAGTATCGATTAGTGCTAG,2.22
TCATGTTTCCTCTTTCTACTGTGCTAG,3.73
TTAGGTTTCGGGTTTCGGTGAGTGCTA,5.51
GATGGTTCCGGTTTCGGGACGTGCTAG,6.45
TTAGGACCGGACACTGGGTTAGTGCTA,-0.403
TTAGGACCGGGGTTTCGGTTAGTGCTA,2.5
TTAGGTCTCCCTTTCCTTTAGTGCTAG,4.3
TCAGATTTCAATTAGAAACTGTGCTAG,1.8
GACGAACCGAGTCTCGAGACGTGCTAG,0.0454
TCACCTGTCTACATGGGACTGTGCTAG,0.771
TTAGGAGTGGGGTATCGGTTAGTGCTA,0.0173
TTAGGTTTCGGGACTGGGTTCGTGCTA,4.47
GATGGACTGCTTCTCCTGACGTGCTAG,-0.351
GTCACATTGCACAATCTTAATGTGCTA,1.08
TCAATTATTGCTTCCTCACTGTGCTAG,0.343
TATAATATATATATTGTTAGGTGCTAG,0.234
TTCGGTATCCTTCTCCTTTAGTGCTAG,7.37
TCATTTCTAAATTCCCTACTGTGCTAG,2.87
TTAGGACAGGGGTTTCGGTTAGTGCTA,2.8
TTAGATTCCCGTTTCGATTAGTGCTAG,3.96

# Study 3
# Target: Histone acetyltransferase KAT6A, winged helix 2, GST fusion (KAT6A, Homo sapiens, UniProt Q92794, residues 85-181)
# Technique: protein binding microarray
# Molecule type: double-stranded DNA, one strand shown
# Sample: in vitro
# Concentration: not given
# Setting: 8-mer, flanks averaged, mean of 2 arrays, mostly near background
# Relative to: not given
# Reading: higher = stronger binding
# Target sequence (chain): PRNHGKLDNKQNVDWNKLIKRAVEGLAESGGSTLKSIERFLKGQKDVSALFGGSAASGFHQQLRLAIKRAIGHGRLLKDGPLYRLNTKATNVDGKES
Strand,E-score
GGTAGCCA,0.0068
AGCACTCC,0.0541
TCAGAGAA,0.0236
AAAATTGC,-0.0124
ATAATGTA,-0.0406
GGGGGCCA,0.107
ACAACTAC,-0.257
CTGTACCC,0.108
ACTATAGC,-0.146
AGTCAATG,-0.188
ACCTGGCG,0.0964
CGCCCCGC,0.337
AGCAACAC,0.125
CCCCTACG,-0.21
AGTCCTGA,-0.0886
CTTTCCCC,0.0466
AAGATACG,0.0772
AATAAAAC,-0.0588
AGGGTCGC,0.203
CCAGTCGG,0.0941
TAGTGGAA,0.0734
GAAGCGTC,-0.0153

# Study 4
# Target: Fragile X messenger ribonucleoprotein 1, C-terminal low-complexity region (Fmr1, Mus musculus, UniProt P35922)
# Technique: RNA Bind-n-Seq
# Molecule type: RNA
# Sample: in vitro
# Concentration: 200 nM
# Setting: whole 134-nt RNA, ends assumed
# Together with: 150 mM LiCl
# Relative to: input library
# Reading: higher = stronger binding
# Library: 7-deaza-guanosine replaces G
# Shared flanks, not repeated: GGGAGUUCUACAGUCCGACGAUC … UGGAAUUCUCGGGUGUCAAGG
Strand,log2 enrichment
GUCCUGUGCUACACAUCGUAUGUACCGAAUCGGGUUUUUGGUUUUUGGGGUUUUUGGGAAAGUAUUAUGUUACGCCGUUCGGAUCUGCAC,-0.986
GUCCUGUGCUACACAUCGUAUGUACCGAAUCAAACCCCCAAAUUUUUUUAAAUUUAAAAAAGUAUUAUGUUACGCCGUUCGGAUCUGCAC,0.544
UGUGCUACACAUCGUAUGUACCGAAUCGGGGUUUUUUUGGGGUUUUUUUGGGGUUUUUGGGGAAAGUAUUAUGUUACGCCGUUCGGAUCU,1.95
AGCCGAGCGGGAACGGAACCGACAGCUGGAGCGAGAGAAACGUCGGGAGCACAGUCGGGAGAGGGACAGGGAGAGAGAGAGAGAAAGGGA,1.56
GUCCUGUGCUACACAUCGUAUGUACCGAAUCGGGAAAAAGGGAAAAAGGGUUUUUGGGAAAGUAUUAUGUUACGCCGUUCGGAUCUGCAC,-1.77
CACAGACAACACGCACCCACACAGACACAGAGGGAAGGGGUUGGGAUGGGGACAGGGUGCACAGCAGGGCGGGGUAUGACCCCAGCCCCU,1.73
GCAGGAAGUAAAAACAACUGGAAAUGCUUCGGAUAGUGGCAGGGGUGGGGGUUGCUAAGGAAAGGGUGGGAUGGGAGUGGGUAAAGAGUU,1.24
UGGGAGGUGGAUUUUGUUUAUUUUAUUAGCUCAUUUCCAGGGGUGGGAAUUUUUUUUUAAUAUGUGUCAUGAAUAAAGUUGUUUUUGAAA,-0.892
AUGCACUUGACAUAGUAGCAAAUUGGUUCUGAAUUAUGCAACUGUUUGCUAUUUAGUAAACUAGCAAAUGAUGCAUGUAUUUUGUUUUUC,-2.83
AGUUCUAUCUCUGGGGUGACUGCCGCAUAUAACCGAGAACAGCUGUGGCUGGCCAAUGAAGGCCUGAUCACCAGGCUGCAGGCUCGCUGC,-1.04
CAAGUCCUGUGCUACACAUCGUAUGUACCGAAUCGGGCCCGGGCCCGGGCCCGGGGAAAGUAUUAUGUUACGCCGUUCGGAUCUGCACUU,-2.65

# Study 5
# Target: CCNB3, cyclin fold, Cln2 fusion (human)
# Technique: yeast growth competition, sequencing
# Sample: yeast
# Setting: weak parent motif
# Relative to: not given
# Reading: higher = stronger binding
# Starting sequence: EXO1 docking peptide (human); KPECGRVQRAIFQ
Variant,normalised enrichment score
KPECGRVARAIFQ [Q8A],0.173
KPEAGRVQRAIFQ [C4A],-0.0491
KPECGRVQRAIFA [Q13A],0.0815
KPECGRVQRAAFQ [I11A],-0.0552
KPECGAVQRAIFQ [R6A],-0.0469
KPECGRAQRAIFQ [V7A],0.549

# Study 6
# Target: RNA binding protein fox-1 homolog 2, RRM domain, GST-SBP tag (RBFOX2, Homo sapiens, UniProt O43251-10, residues 100-194)
# Technique: RNA Bind-n-Seq
# Molecule type: RNA
# Sample: in vitro
# Concentration: 365 nM
# Setting: natural RNA segment, single round, ends assumed
# Relative to: no-protein control
# Reading: higher = stronger binding
# Shared flanks, not repeated: GGGAGUUCUACAGUCCGACGAUC … UGGAAUUCUCGGGUGCCAA
# Target sequence (chain): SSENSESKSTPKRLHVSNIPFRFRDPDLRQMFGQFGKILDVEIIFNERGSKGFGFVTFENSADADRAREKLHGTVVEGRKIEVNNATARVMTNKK
Strand,RBNS enrichment (R)
GGGUUUCUGAAAAACAGCAGGAUUAAGUACUGAAAGAGCCCAACACAAUUACCCUGUAAACUCUCUGUUAGGGCAACCACCACCACCUGUCUUCCAGGACACAUUUUUAG,0.5
CAGAGGACAGCAGCAGCCACUGCCCUCACCUUUAACCCCUUGCCUUGCCUCCCAGGGAUUUGUGAGCCUUUCCUAGAAGGUCCUGUGCUCUCCUCCUUCUGUCCCCUCCC,2.27
AUAAUAUCUGACUAUUGUUUUCUAUUAAAUAUCAGAACCUUACUGGGUCUUUACACCUCUGUGAAGUAGAGAAUUUUGGCAAUGAACUGUUUAACUUGGCCAAUCUAGGC,0.454
ACAAAGCCUGGGGUACCCGCAUCUGGUUUGGAACCCUGAGUUUUGUUGUUCAGUCAGCAGCCCUAGUCAUGGUUGCCAAUAGUUUUCCCAAGCAAGGCGUCACCGAGGAG,0.244
AAAGUGAGAAUUCAAGCACAUUUCUUUCCUUUGCUAUGUAGGGAGGCUGCUGCCUUCCCAGAGCCUGGAGGCAGCUCUGCUGUUCAGCCCCAAACUUUGUUUACACUGCU,0.404
GCUACCCACCCACUGAUGCCGCCUGCUAUUCCUGCUGUUGGAGGCCACUGGACCACUGGGGGCACAAUGGAGACUUCUCUUCAGAAUGGUUUUUGUUCUGUCUACCCUCU,0.494
UUUCUGCCCCAGCCAAAAUAAUCUUGUGCCAAAAGAUUAAAGGUUUGCCUCAAAAUGUCCCUGUUUGAAAGAUUAGCACAAAAGUCUUGAUAGCACAACACAAAUUCCAU,0.893
AGCAAACUAACACCAAGUGCCAGAGUCCUGGAUGUGCAAUUGGUUUAAGUGUUCAUGUUCUAGUGAACACAGCUUGUUCAGGAACAAACACUAAAACGAUUUGAGUAGAG,0.355
UGGGCAGCUUCUGCCUAGGGCAGAGCCCACAAACCAGUGCGUCUGUGCAGAACGUCUGGAUGGACACCCAUCAUGCAUCAGUGCAAUAGAGUCUAGUAAGUGUCUCUAGC,0.509
AUAUCUUGUAGUUUUCAGAAAAGCCUUUGGAAAUCUGGAUCAGAAAAUAGAUACCAUGGUUUGUGCAAUUAUGUAGUAAAAAAGGCAAAUCUUUUCACCUCUGGCUAUUC,0.625
CCAACUGUGGCAUCAAUACUGCAACUUAAACUUGACAAUCAUGGUUUGCUGGUCCUCAAACAGGCACUGAAAUCUCAGUAUGGGUAUACGAUUUAAUAAUCGGCCCCUCC,0.677
AUAGUGUCACCUGUGUAAAUCAAAUCAAAAUAGCCUUCCCUAUUAUUUAUGAACCCAUGGGAGACUUUAAACUCUUGUAGAUAGAUGCUAAAUGCCCAGGCCCACUUAAC,0.369

# For quick reference, copied from above (study 4):
Strand,log2 enrichment
GUCCUGUGCUACACAUCGUAUGUACCGAAUCGGGUUUUUGGUUUUUGGGGUUUUUGGGAAAGUAUUAUGUUACGCCGUUCGGAUCUGCAC,-0.986
GUCCUGUGCUACACAUCGUAUGUACCGAAUCAAACCCCCAAAUUUUUUUAAAUUUAAAAAAGUAUUAUGUUACGCCGUUCGGAUCUGCAC,0.544
UGUGCUACACAUCGUAUGUACCGAAUCGGGGUUUUUUUGGGGUUUUUUUGGGGUUUUUGGGGAAAGUAUUAUGUUACGCCGUUCGGAUCU,1.95
AGCCGAGCGGGAACGGAACCGACAGCUGGAGCGAGAGAAACGUCGGGAGCACAGUCGGGAGAGGGACAGGGAGAGAGAGAGAGAAAGGGA,1.56
GUCCUGUGCUACACAUCGUAUGUACCGAAUCGGGAAAAAGGGAAAAAGGGUUUUUGGGAAAGUAUUAUGUUACGCCGUUCGGAUCUGCAC,-1.77
CACAGACAACACGCACCCACACAGACACAGAGGGAAGGGGUUGGGAUGGGGACAGGGUGCACAGCAGGGCGGGGUAUGACCCCAGCCCCU,1.73
GCAGGAAGUAAAAACAACUGGAAAUGCUUCGGAUAGUGGCAGGGGUGGGGGUUGCUAAGGAAAGGGUGGGAUGGGAGUGGGUAAAGAGUU,1.24
